Measured values collected from several papers.
Parts stem from different laboratories: compare values within a part only. Changes are numbered by the printed parent chain.
UniProt O15294, sequence (whole entry, looked up): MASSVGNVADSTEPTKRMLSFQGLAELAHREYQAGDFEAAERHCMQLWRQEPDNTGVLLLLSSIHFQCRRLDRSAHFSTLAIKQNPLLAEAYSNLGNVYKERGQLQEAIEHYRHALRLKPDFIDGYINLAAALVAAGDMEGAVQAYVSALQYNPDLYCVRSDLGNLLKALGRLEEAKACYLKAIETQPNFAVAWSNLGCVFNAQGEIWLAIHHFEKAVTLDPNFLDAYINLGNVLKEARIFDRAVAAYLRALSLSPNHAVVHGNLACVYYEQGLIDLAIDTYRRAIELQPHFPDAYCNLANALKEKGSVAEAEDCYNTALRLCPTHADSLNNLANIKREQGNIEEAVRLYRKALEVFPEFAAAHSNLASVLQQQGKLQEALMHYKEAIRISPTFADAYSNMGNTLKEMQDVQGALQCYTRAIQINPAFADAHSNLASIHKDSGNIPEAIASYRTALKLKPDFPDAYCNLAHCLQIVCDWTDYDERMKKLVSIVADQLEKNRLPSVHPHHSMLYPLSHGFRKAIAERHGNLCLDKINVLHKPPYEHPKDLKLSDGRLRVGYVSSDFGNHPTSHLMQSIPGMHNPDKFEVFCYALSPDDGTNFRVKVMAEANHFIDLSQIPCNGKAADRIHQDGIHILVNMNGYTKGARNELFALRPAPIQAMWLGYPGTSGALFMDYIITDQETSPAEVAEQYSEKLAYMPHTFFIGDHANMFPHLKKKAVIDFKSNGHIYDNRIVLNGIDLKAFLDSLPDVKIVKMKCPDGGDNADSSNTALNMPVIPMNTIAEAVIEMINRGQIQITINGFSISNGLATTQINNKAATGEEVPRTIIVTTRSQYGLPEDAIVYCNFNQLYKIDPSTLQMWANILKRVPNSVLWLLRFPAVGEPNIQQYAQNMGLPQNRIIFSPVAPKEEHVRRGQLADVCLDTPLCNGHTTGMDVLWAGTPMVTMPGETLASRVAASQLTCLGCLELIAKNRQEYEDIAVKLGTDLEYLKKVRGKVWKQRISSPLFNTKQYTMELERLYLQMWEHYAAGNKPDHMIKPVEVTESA

Study 1 — target: CREB5, bZIP domain (human); technique: DHFR protein complementation; medium: yeast; reference: wild-type JUN-FOS pair; direction: higher = stronger binding
Setting: single substitutions, most at no-binding floor
Starting sequence: JUN, bZIP domain (human); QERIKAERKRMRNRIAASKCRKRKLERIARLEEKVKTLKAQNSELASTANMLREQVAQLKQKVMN; partner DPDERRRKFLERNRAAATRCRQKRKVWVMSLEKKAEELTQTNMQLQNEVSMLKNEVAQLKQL
| Change | binding fitness |
| --- | --- |
| I28G | -0.426 natural log |
| T48Q | -0.146 natural log |
| L59V | -1.19 natural log |
| A57W | -0.63 natural log |
| I28D | -0.609 natural log |
| S43I | -0.213 natural log |
| K39S | -0.284 natural log |
| L59A | -1.15 natural log |

Study 2 — technique: competition protein-binding microarray; form: double-stranded DNA, one strand shown; medium: in vitro; concentration: 2 µM; with: Pho4 competitor, 0.05 µM; direction: higher = stronger binding; all sequences stand within: … GTCTTGATTCGCTTGACGCTGCTG
Target: Centromere-binding protein 1, full length, His-tagged (CBF1, Saccharomyces cerevisiae, UniProt P17106, residues 1-351)
UniProt P17106, sequence (whole entry, looked up): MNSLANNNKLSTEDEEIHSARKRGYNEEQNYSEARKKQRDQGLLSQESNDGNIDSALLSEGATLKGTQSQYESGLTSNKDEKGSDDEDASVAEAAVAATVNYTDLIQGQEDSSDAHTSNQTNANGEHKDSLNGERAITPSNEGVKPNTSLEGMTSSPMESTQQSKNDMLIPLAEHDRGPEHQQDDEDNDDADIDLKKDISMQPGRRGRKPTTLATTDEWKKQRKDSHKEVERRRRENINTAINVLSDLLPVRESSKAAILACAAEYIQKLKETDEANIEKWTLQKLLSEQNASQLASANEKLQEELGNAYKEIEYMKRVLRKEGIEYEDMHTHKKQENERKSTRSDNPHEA
Setting: whole 60-bp probe, lowest competitor level
| Strand | fluorescence intensity [a.u.] |
| --- | --- |
| GTCTTGTCTCATTGTCACTCTACTTTCCCCACTTCA | 95.3 |
| TCGAGGTTCTCTTTCCCCGTGCCAGACTTGGCTTGA | 68 |
| CGTCCTAGTGATTGTCACACTACTTCCATGAGGAAG | 92.6 |
| CGTCCTAGCGATTGAGTGGTGGGTGCCATGAGGAAG | 76.8 |
| CATAACAGTCTAGAGCGCGTGGGTAATACGGCTGTT | 80 |
| AGTTAAAACCAGATATGCGTGGGACATAGTAGGGTG | 70.5 |
| GAGAGGATTGCGACCTTGTTATCATGGCATTGATGT | 56.5 |
| CTTCTGTAAATTTTTCACGTGCTATGACGCGCCCCG | 1350 |

Study 3 — technique: RNA Bind-n-Seq; form: RNA; medium: in vitro; concentration: 20 nM; setting: 6-mer, flanks averaged, single round; with: 150 mM KCl; reference: input library; direction: higher = stronger binding
Target: TAR DNA-binding protein 43, full length, His tag (TARDBP, Homo sapiens, UniProt Q13148, residues 1-414)
| Strand | 6-mer enrichment (R) |
| --- | --- |
| UCGCAG | 0.858 |
| GUCUAU | 0.614 |
| GGAAUG | 1.8 |
| GAGUUU | 0.785 |
| AGUUCU | 0.553 |
| CUUGAC | 0.727 |
| UGGCAG | 1.52 |
| AUUUGG | 0.868 |

Other studies, line by line
| Sequence | target | test | test system | conditions | scale | measurement | result |
| --- | --- | --- | --- | --- | --- | --- | --- |
| RPLEQSHHHIFFSKR | UDP-N-acetylglucosamine--peptide N-acetylglucosaminyltransferase 110 kDa subunit (OGT, Homo sapiens, UniProt O15294) | binding, phage display NGS | peptide | concentration not given | reference: input library | enrichment fold change | 2.04 |

For quick reference, copied from above (study 1):
| Change | binding fitness |
| --- | --- |
| I28G | -0.426 natural log |
| I28D | -0.609 natural log |
